Literature values as cited in several papers.
Numbered parts are unrelated; values within a part may stem from several laboratories.

Sample 1 — organism: Cryptosporidium parvum; method: high-throughput screen; concentration: concentration not given
| Structure (SMILES) | activity |
| --- | --- |
| CCCSc1ccc2nc(NC(=O)OC)[nH]c2c1 | inactive |
| CN(C/C=C/C#CC(C)(C)C)Cc1cccc2ccccc12 | inactive |
| COc1ccc(-c2cc(=O)c3c(OC)c(OC)c(OC)c(OC)c3o2)cc1OC | inactive |
| CC(C)[C@H]1CC[C@H](C(=O)N[C@H](Cc2ccccc2)C(=O)O)CC1 | inactive |

Other studies, line by line
| SMILES | tested on | test | test system | setting | endpoint | result |
| --- | --- | --- | --- | --- | --- | --- |
| COc1cc(-c2cn(C3CCc4c(F)cccc4N(CC(F)(F)F)C3=O)nn2)ccc1-n1cnc(C)c1 (stereo not shown) | gamma-secretase complex (human) | cellular activity | – | – | IC50 | < 100 nM |
| Cc1cc(C)c(CNC(=O)c2cc(Cl)c3c(c2C)O[C@@](C)([C@H]2CC[C@H](N(C)C)CC2)O3)c(=O)[nH]1 | – | – | human non-Hodgkin lymphoma patients | oral, 150 to 300 mg once daily | Tmax | 2 to 4 h |
| CCOc1ccc(S(=O)(=O)Nc2ccc(Cl)cc2C#Cc2cnc(C(=O)O)cc2OC)c2ncccc12 | PTGER2 | – | – | – | IC50 | > 30000 nM |
| CC(C)n1nc(-c2ccc3oc(N)nc3c2)c2c(N)ncnc21 | – | – | patients | dose not given, dose-expansion phase | hyperglycemia incidence | 60% |
| CN(C)C(=O)Cn1cc(-c2nc(C3(c4ccc(-c5cnc(N)nc5)cc4)CC3)no2)cn1 | ALOX5AP | biochemical activity | – | – | IC50 | 670 nM |
| CNC(=O)c1ccc(Nc2ncc(C(F)(F)F)c(NCc3nccnc3N(C)S(C)(=O)=O)n2)cc1 | CLK1 | kinase activity | – | – | IC50 | 250 nM |

Some of these lines once more (other studies, line by line):
| SMILES | tested on | test | test system | setting | endpoint | result |
| --- | --- | --- | --- | --- | --- | --- |
| COc1cc(-c2cn(C3CCc4c(F)cccc4N(CC(F)(F)F)C3=O)nn2)ccc1-n1cnc(C)c1 (stereo not shown) | gamma-secretase complex (human) | cellular activity | – | – | IC50 | < 100 nM |
